Published values of several laboratories.
Numbered parts are unrelated; each lists some results of a single study. Positions count from the first letter of the parent shown.
Chain of UniProt Q9ZTX9 (whole entry, looked up): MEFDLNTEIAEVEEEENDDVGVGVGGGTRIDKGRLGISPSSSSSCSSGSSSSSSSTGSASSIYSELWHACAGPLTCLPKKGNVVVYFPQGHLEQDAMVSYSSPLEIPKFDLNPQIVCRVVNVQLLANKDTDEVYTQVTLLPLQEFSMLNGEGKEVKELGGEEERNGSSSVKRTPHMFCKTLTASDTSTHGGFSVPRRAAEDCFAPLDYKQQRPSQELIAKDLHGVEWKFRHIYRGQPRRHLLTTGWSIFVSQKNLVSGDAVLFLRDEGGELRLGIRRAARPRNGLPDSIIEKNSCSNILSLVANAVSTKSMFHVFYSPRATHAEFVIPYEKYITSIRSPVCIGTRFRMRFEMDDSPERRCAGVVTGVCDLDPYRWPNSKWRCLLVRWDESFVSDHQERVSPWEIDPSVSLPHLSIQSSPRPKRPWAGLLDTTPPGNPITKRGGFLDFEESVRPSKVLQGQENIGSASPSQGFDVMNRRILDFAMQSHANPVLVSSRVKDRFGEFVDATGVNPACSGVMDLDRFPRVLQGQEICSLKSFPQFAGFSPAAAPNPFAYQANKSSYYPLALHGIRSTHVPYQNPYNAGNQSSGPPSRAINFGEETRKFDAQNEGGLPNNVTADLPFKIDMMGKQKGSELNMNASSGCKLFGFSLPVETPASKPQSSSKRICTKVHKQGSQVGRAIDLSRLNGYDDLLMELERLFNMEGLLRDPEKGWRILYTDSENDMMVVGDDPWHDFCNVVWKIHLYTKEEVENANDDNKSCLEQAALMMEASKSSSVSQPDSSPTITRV
Chain of UniProt Q9M1R4 (whole entry, looked up): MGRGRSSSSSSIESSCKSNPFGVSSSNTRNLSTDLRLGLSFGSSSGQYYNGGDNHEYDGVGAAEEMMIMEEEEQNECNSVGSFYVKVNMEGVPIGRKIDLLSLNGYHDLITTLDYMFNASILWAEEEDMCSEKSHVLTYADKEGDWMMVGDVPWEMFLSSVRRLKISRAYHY
Chain of UniProt P93024 (whole entry, looked up): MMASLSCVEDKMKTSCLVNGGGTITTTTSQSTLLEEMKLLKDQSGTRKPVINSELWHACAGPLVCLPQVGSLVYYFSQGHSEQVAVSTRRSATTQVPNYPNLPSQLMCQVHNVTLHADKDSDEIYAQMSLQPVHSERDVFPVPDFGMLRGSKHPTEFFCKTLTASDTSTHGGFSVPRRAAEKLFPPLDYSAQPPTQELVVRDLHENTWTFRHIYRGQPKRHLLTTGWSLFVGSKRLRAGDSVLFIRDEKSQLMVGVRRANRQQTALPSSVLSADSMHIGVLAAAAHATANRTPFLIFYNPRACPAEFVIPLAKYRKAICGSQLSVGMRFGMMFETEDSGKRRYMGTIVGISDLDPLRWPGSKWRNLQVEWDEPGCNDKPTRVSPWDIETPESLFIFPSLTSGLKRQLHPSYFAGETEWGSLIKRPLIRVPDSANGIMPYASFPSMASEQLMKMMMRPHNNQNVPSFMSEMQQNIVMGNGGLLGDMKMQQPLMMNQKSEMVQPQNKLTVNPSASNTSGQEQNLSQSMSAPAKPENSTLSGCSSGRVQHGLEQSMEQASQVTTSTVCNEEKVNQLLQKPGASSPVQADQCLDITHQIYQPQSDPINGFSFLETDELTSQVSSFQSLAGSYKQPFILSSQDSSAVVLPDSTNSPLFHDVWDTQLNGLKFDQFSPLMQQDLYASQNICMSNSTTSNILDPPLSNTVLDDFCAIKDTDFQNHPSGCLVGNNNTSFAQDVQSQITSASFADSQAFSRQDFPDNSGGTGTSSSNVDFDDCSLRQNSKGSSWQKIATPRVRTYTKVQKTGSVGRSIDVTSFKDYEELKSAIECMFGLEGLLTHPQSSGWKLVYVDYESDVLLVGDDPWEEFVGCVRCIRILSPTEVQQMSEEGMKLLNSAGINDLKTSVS
Chain of UniProt Q94JM3 (whole entry, looked up): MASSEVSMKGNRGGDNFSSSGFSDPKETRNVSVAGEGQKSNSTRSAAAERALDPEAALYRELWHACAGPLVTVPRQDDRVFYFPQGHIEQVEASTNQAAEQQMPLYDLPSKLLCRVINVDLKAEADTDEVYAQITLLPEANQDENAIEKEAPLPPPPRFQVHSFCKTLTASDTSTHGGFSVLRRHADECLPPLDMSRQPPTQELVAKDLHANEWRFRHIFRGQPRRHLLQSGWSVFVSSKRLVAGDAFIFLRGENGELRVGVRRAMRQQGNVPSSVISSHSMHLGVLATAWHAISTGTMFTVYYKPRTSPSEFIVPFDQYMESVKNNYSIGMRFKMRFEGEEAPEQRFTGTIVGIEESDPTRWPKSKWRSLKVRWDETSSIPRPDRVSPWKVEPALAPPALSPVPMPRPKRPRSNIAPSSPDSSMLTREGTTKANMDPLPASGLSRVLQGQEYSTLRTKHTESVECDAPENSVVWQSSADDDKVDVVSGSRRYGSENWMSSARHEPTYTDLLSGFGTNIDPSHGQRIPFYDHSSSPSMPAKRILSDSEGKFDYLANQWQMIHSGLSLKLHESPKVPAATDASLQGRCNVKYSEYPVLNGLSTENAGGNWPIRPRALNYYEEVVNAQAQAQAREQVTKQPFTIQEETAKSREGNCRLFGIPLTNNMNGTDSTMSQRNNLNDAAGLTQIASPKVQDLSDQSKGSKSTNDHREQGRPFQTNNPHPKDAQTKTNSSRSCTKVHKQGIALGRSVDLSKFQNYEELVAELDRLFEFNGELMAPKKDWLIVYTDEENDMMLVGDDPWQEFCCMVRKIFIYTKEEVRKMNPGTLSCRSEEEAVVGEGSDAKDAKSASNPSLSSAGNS

Block 1
Target: ABI1, truncated, D143A, DHFR fusion (Arabidopsis thaliana)
Technique: DHFR PCA, deep sequencing
Medium: yeast
Notes: methotrexate growth selection, single substitutions
Together with: (+)-ABA 58 µM
Reference: wild-type fitted maximum
Reading: higher = stronger binding
Starting sequence: PYL1, truncated, DHFR fusion (Arabidopsis thaliana); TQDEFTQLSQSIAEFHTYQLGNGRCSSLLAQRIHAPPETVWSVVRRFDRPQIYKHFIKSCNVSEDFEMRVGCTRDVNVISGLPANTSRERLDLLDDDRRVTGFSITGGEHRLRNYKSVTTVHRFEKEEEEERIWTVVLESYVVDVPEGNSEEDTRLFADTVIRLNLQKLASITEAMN
| Substitution | relative binding score [%] |
| --- | --- |
| V136G | 12.9 |
| R46H | 43.4 |
| V142F | 48.1 |
| R155T | 82.5 |
| T6H | 83.2 |
| H55S | 87.8 |
| V143P | -1.57 |
| R46M | 75.6 |
| V70S | 61 |
| Q2Y | 86.6 |
| Q10S | 92.7 |
| V40I | 54.6 |
| G148F | 48.9 |
| E14D | 70.6 |
| E109S | 89.2 |
| I52F | 76.2 |
| L28Q | 51.9 |
| L91W | 14.5 |
| T106C | 85.6 |
| L8A | 58 |

Block 2
Target: Prothrombin, mature alpha-thrombin (F2, Homo sapiens, UniProt P00734)
Technique: aptamer microarray, sandwich
Form: DNA with 2'F-ANA
Medium: in vitro
Tested at: 200 nM
Notes: whole 15-mer aptamer, many near background
Together with: Cy3 exosite-II aptamer, 400 nM
Reading: higher = stronger binding
Oligonucleotide: GGTTGGTGTGGTTGG
| Modification | mean fluorescence intensity [a.u.] |
| --- | --- |
| 2'F-ANA at 4 6 7 8 9 10 12 14 15 | 61.4 |
| 2'F-ANA at 1 2 4 5 11 12 14 15 | 43.6 |
| 2'F-ANA at 2 5 9 12 13 14 15 | 67.5 |
| 2'F-ANA at 1 2 3 6 10 11 12 13 | 78.8 |
| 2'F-ANA at 1 2 3 5 8 9 11 14 | 80.5 |
| 2'F-ANA at 6 7 8 9 12 13 | 642 |
| 2'F-ANA at 3 4 6 8 9 10 15 | 219 |
| 2'F-ANA at 1 2 4 5 6 8 9 10 13 14 15 | 52.5 |
| 2'F-ANA at 1 4 5 7 8 11 12 14 | 56.3 |
| 2'F-ANA at 2 3 4 5 6 8 11 14 | 54.2 |
| 2'F-ANA at 1 2 3 8 9 10 11 13 15 | 77 |
| 2'F-ANA at 1 2 5 6 14 | 45.3 |
| 2'F-ANA at 2 4 8 9 13 14 15 | 95.3 |
| 2'F-ANA at 1 2 4 5 7 9 10 11 | 47 |
| 2'F-ANA at 1 2 3 5 6 9 10 12 13 | 79.1 |
| 2'F-ANA at 1 2 3 4 5 6 8 9 11 14 15 | 47 |
| 2'F-ANA at 1 2 4 5 6 9 12 13 | 72.4 |

Block 3
Target: RING finger protein unkempt homolog, zinc fingers 1-6, SBP tag (UNK, Homo sapiens, UniProt Q9C0B0, residues 30-357)
Chain of UniProt Q9C0B0 (30-357, looked up): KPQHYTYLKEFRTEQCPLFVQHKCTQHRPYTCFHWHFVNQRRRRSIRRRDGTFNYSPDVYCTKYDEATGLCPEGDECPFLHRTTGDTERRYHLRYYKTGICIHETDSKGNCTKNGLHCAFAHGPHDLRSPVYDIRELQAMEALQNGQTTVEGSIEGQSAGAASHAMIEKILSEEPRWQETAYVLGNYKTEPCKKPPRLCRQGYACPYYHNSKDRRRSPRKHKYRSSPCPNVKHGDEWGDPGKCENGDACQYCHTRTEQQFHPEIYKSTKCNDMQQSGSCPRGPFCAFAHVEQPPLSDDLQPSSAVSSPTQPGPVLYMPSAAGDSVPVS
Technique: RNA Bind-n-Seq
Form: RNA
Medium: in vitro
Tested at: 100 nM
Notes: RNA with constant flanks, vertebrate orthologous sites, ends assumed
Reference: input RNA pool
Reading: higher = stronger binding
| Oligonucleotide | bound/input enrichment |
| --- | --- |
| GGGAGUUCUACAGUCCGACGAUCCAGUAGAAUUACACUAAUACUGAAGUUAAAAGAAUAUCCAAGGUGAUGAUAAAGUGUGUGUUGGUAGUUGCUAAAAGAACCUUAGCUGUUAUUGCCUUGUAUUUCUAUUCCUUGUUUCAGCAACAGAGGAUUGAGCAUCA | 0.545 ratio |
| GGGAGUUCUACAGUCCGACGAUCGGUAUAGUUUUCAUUGUGAUAAUUAAAAAUAUCUUACCCAUAGUGACAACUAGUUUGCACUAGCAGAAUCAUUUACUAUUACUUUUAAAAUUAUGUGCUGCUUGUGAUAGCGGAAGUCAACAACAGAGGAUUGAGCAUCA | 0.708 ratio |
| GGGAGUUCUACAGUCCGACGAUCGUUUUUUAAUUUAUUUUUCUUUCCUUUUUUUUUUUCGGGGGUAAAGUUUGCUCUACCAAAUAGUGAUCGUAACAAACUGAUCUGUUAUGGAUGUUGCUAUAGUGACAUGCAAUUAUAUAUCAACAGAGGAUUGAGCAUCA | 1.97 ratio |
| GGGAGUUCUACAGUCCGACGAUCGAAGGGCUGCGUAGAGUAGGGUCCUGUUCUCUUUAGAGCGUUCUUCUCUGUUUUGUCUUCCUCAGGGUGGGGUAGGGGUUGUGGUGCACCCCAGCCCUGAGGCGUGAGUGUUUGUGGUUCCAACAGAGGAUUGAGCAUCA | 1.01 ratio |
| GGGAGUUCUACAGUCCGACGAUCUUCUAGUACUUAAGCCAACAGUUCUAAAAUGCUAUUUAUUUGUGUCUGUAAGAUUGUACAUAUACUACCAACCUCAUACUGUUGUGGAUUUUUUUCUCACAAGCUUGAGUUUAGGUUUUUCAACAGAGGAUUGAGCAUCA | 0.412 ratio |
| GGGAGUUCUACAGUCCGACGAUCCUCUACGGGCCUCGCAGAGUGGAAAUAAUGGAAGAGGAAAGUGAACAGUAAUCUUCAUUUUAGUAUUUAUGCUUAGGUGUGAAAUAAAUGUUAUUUGUUGAUCAUUUCUAUAACCCAGAGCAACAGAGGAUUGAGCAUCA | 0.573 ratio |
| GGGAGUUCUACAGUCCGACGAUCCCUUCCUUCCUUCCUUCUUCCCUCCCUCCCUUCAUUUCUUUCAUUUUUUUACAUUUUGUAUAGAAACAAAUUCAUUUAAACGAACUUAUUAUUAUUAUUUUUUACAAAAUAUAUAUAUAGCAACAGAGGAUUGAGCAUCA | 1.17 ratio |
| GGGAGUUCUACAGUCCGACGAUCCUCCCGGGGCUUGGUGGAGUAGGCUCCUGUGCUCCUGACAGUGUUCUUUGUUUUAUUGUCCUCGGGGUGGGGGGUGCUCACUGCCCCUGCGGUGCGAGCUUUGUGGUUCAUCUGUAUUUACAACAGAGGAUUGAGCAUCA | 0.478 ratio |
| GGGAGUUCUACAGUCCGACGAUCUUUAUUGAUCAGGUCUGUAAAAUGUGUACUGAAAAAAUCAGAGUUUAUUUAUAAACAGAAUAGUUUAUUUAAACAGAAAGUCUUUCCUCAUUGGUAUUGUGGUAUGCAUUAAUUCCAUUUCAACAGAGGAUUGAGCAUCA | 0.102 ratio |
| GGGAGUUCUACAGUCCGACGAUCAGCAGCUCAAGGAUUCAGAACUGGUUUUGCAAAUGUCCCAGGCAGAUAUGGAACAAAUGCUCGUGGUCAGCCCCGACCAUAAUAAACACCAUUAUUUAUUAUACUUAAGGGUAUUGACUUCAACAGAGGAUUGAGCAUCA | 0.344 ratio |
| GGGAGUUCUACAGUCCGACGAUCAGGAAAUGCUGGCUGCAAACCCUCAGGAUCGUCCAGAUGCUUUUGAACUAGAACUCAGAUUAGUACAAAUUGCAUUUAAAGACAGCAGCUGGGAAACGUGACACAUAUAUUAUUUGCAAACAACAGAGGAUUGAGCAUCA | 0.898 ratio |

Block 4
Target: CCND1, cyclin fold, Cln2 fusion (human)
Technique: yeast growth competition, sequencing
Medium: yeast
Notes: weak parent motif
Reference: not given
Reading: higher = stronger binding
Starting sequence: BRCA2 docking peptide (human); PSIKRNLLNEFDR; partner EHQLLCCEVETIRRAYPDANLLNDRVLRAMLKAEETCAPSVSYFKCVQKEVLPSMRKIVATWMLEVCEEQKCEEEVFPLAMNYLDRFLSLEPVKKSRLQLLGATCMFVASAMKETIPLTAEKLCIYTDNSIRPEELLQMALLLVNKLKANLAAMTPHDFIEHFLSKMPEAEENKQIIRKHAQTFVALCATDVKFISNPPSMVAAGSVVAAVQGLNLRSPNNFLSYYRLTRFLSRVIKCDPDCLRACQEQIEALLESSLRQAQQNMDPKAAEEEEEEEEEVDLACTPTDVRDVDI
| Substitution | normalised enrichment score |
| --- | --- |
| PSIKRNKLNEFDR [L7K] | 0.041 |
| PSIKNNLLNEFDR [R5N] | 0.209 |
| PSIKRNLLGEFDR [N9G] | 0.413 |
| PSIKRNLLNEFDV [R13V] | 0.281 |
| PSIKLNLLNEFDR [R5L] | 0.015 |
| PSIKRNLLNFFDR [E10F] | 1.06 |
| PSVKRNLLNEFDR [I3V] | 0.0198 |
| PSIKRNLKNEFDR [L8K] | 0.164 |
| PSIKRNNLNEFDR [L7N] | -0.989 |
| PSWKRNLLNEFDR [I3W] | -0.147 |
| PSIKRNLLNEADR [F11A] | 0.711 |
| PSIKRNLLNEFMR [D12M] | 0.751 |
| PSIKRNVLNEFDR [L7V] | -0.106 |
| PSGKRNLLNEFDR [I3G] | 0.549 |
| RSIKRNLLNEFDR [P1R] | 0.735 |
| PSIKRNLMNEFDR [L8M] | 1.69 |
| PSIKRNLLNEFDI [R13I] | 1.99 |
| PEIKRNLLNEFDR [S2E] | -0.0137 |
| PSIKRNMLNEFDR [L7M] | 0.0459 |
| PSIKRNPLNEFDR [L7P] | -0.392 |

Block 5
Sequence: B1 (IAA27)
Technique: two-hybrid
Reading: higher = firmer interaction
B1: IAA27 (Arabidopsis thaliana, UniProt Q9ZSY8); chain MSVSVAAEHDYIGLSEFPTMEATTMSDKTKTRDNNNGLNFKATELRLGLPGSESPERVDSRFLALNKSSCPVSGAKRVFSDAINDSNKWVFSPGSTTATGDVGSGSGPRTSVVKDGKSTTFTKPAVPVKEKKSSATAPASKAQVVGWPPIRSFRKNSMASSQSQKPGNNSETEEAEAKSGPEQPCLYVKVSMEGAPYLRKIDLKTYKSYLELSSALEKMFSCFTIGQFGSHGGCGRDGLNESRLTDLLRGSEYVVTYEDKDSDWMLVGDVPWEMFICSCKKLRIMKSSEAIGLAPRVMEKCRSRN
| partner | conditions | how to read | positive tests |
| --- | --- | --- | --- |
| ARF5 788-902 (Arabidopsis thaliana, UniProt P93024) |  | reference: out of 2 tests | 2 |
| ARF2 727-859 (Arabidopsis thaliana, UniProt Q94JM3) |  | reference: out of 4 tests | 0 |
| ARF4 660-788 (Arabidopsis thaliana, UniProt Q9ZTX9) |  | reference: out of 4 tests | 0 |
| IAA30 (Arabidopsis thaliana, UniProt Q9M1R4) | weak activation fusion | reference: out of 4 tests | 2 |

Repeated from above (block 2):
| Modification | mean fluorescence intensity [a.u.] |
| --- | --- |
| 2'F-ANA at 1 2 4 5 11 12 14 15 | 43.6 |
| 2'F-ANA at 2 5 9 12 13 14 15 | 67.5 |
| 2'F-ANA at 1 2 3 6 10 11 12 13 | 78.8 |
| 2'F-ANA at 1 2 3 5 8 9 11 14 | 80.5 |
| 2'F-ANA at 6 7 8 9 12 13 | 642 |
| 2'F-ANA at 3 4 6 8 9 10 15 | 219 |
| 2'F-ANA at 1 2 4 5 6 8 9 10 13 14 15 | 52.5 |
| 2'F-ANA at 1 4 5 7 8 11 12 14 | 56.3 |
| 2'F-ANA at 2 3 4 5 6 8 11 14 | 54.2 |
